Measured values collected from several papers.
Each numbered part is a random draw from the data of one study; scales do not carry over between parts.
Chain of UniProt P29320 (whole entry, looked up): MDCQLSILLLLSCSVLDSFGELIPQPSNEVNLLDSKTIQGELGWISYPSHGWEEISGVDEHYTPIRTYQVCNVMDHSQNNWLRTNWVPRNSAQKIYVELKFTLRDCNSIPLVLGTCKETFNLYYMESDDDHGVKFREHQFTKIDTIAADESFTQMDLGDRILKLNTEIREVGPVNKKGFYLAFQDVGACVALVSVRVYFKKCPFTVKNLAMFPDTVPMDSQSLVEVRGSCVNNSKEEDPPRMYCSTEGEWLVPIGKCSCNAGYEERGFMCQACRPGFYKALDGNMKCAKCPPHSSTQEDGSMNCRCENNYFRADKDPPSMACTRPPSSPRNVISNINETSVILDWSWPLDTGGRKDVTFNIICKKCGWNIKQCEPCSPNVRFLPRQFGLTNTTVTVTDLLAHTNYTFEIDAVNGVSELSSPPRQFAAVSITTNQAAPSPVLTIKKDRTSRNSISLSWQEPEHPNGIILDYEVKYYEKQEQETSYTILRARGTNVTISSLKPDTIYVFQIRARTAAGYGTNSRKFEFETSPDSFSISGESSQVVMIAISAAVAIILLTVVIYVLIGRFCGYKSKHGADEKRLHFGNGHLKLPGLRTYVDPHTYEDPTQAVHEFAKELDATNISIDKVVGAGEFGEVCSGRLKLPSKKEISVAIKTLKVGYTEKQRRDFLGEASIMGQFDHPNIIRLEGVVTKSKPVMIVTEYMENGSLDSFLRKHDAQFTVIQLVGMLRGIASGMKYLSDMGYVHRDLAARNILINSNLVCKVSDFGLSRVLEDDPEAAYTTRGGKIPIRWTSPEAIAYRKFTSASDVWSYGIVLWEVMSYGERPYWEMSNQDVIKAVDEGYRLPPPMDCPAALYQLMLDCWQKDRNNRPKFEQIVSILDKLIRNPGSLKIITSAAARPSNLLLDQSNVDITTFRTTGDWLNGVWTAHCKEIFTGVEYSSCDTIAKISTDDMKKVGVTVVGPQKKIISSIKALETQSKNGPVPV
Chain of UniProt P22607 (whole entry, looked up): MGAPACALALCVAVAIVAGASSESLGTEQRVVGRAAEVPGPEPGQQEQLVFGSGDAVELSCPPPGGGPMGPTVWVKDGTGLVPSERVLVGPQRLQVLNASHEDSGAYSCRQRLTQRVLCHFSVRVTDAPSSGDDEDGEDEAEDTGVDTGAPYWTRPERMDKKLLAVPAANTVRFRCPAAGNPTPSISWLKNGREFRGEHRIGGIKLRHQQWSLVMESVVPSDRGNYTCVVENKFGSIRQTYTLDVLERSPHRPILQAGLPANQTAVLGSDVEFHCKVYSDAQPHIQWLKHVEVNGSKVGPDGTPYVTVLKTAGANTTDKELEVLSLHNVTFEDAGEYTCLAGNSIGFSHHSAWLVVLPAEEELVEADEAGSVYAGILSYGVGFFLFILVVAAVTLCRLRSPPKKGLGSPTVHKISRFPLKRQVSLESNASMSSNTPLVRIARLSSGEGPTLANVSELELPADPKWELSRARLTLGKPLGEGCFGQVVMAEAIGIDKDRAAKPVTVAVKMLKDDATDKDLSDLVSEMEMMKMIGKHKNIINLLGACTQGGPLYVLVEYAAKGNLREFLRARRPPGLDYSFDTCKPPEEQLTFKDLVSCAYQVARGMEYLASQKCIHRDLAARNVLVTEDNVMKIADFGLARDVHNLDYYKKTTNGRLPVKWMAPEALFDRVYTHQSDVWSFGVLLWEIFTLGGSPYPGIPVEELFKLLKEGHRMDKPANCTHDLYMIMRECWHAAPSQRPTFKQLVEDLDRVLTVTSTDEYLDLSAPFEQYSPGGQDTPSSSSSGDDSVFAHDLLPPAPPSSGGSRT
Chain of UniProt Q99558 (whole entry, looked up): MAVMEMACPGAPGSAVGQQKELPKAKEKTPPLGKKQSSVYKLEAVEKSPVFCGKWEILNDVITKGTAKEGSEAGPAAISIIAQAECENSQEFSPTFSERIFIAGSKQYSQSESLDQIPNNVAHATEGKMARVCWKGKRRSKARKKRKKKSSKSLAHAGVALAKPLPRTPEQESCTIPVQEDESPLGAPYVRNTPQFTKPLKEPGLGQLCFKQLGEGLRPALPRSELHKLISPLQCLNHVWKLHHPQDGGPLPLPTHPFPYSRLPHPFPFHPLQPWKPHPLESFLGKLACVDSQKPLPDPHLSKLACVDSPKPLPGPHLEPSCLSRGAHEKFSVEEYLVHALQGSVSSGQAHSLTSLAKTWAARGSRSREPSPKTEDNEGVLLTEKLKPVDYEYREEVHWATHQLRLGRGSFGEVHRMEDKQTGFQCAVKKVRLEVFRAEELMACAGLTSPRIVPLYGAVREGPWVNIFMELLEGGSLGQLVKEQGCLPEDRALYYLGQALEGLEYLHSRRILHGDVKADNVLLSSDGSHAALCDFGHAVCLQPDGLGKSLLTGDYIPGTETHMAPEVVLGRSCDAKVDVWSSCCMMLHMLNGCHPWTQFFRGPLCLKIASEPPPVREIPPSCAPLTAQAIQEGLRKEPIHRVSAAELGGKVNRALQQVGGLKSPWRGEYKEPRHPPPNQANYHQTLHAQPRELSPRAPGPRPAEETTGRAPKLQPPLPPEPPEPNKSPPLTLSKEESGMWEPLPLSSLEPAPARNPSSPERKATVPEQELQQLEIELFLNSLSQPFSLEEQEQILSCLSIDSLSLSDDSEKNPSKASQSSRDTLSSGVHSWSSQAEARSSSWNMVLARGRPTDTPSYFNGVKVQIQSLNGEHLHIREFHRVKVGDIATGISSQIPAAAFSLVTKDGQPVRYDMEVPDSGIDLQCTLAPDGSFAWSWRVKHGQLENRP
Chain of UniProt P00519 (whole entry, unmodified, looked up): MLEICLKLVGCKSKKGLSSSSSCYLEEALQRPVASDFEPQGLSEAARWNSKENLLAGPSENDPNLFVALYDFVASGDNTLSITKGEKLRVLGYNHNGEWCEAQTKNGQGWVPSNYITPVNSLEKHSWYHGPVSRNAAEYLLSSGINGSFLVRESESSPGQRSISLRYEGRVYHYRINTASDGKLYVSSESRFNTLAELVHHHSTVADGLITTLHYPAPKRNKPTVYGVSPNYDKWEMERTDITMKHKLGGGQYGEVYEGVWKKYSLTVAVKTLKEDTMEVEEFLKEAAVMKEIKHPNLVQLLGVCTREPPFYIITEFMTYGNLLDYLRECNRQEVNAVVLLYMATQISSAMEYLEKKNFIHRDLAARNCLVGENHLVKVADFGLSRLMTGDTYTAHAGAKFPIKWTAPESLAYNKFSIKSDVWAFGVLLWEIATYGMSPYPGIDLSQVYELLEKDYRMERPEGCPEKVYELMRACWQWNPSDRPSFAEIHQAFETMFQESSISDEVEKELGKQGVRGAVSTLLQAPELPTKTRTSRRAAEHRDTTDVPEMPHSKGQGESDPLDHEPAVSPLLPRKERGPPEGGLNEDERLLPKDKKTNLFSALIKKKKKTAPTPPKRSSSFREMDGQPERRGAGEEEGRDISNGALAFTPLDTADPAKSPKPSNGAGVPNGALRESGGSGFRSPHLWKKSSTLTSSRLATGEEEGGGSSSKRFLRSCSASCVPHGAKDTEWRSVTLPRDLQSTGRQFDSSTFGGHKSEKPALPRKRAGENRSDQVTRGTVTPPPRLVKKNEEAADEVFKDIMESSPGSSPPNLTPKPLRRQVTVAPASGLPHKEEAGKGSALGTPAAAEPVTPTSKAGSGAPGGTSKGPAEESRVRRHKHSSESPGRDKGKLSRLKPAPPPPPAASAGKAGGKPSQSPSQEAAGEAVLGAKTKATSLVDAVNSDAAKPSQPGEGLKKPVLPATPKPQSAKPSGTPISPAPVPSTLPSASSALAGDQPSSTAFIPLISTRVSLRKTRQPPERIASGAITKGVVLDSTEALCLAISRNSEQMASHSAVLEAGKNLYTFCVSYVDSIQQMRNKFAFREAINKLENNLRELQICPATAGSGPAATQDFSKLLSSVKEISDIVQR
Chain of UniProt P10721 (whole entry, unmodified, looked up): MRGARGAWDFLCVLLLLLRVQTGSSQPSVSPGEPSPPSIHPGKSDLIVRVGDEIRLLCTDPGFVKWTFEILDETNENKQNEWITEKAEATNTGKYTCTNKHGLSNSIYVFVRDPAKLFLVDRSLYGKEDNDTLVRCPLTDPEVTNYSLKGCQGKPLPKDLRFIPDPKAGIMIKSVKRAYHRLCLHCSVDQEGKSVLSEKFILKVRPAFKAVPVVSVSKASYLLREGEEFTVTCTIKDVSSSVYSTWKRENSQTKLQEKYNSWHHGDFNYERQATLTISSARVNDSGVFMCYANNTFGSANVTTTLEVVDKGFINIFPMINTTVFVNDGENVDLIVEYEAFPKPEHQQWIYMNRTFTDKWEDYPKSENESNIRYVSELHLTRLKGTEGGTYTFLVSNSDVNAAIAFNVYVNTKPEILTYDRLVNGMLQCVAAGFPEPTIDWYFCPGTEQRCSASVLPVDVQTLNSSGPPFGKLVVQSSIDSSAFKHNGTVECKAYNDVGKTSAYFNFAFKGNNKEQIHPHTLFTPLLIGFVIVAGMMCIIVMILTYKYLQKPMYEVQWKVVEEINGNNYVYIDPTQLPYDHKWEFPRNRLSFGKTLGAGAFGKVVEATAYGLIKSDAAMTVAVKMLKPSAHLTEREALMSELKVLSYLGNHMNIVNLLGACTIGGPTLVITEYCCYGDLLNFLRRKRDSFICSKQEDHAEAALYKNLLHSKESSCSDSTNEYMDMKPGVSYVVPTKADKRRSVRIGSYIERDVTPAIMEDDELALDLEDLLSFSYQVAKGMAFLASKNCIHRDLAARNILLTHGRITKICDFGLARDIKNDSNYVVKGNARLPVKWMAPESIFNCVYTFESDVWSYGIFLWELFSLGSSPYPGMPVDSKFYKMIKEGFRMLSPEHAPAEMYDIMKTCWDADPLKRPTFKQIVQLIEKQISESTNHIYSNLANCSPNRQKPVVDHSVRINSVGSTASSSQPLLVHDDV

Sample 1
Structure (SMILES): C[C@H]1CC[C@H](n2c3cnccc3c3cnc(Nc4ccc5c(n4)CCN(C(=O)CO)C5)nc32)CC1
Observed: cell-free assay
Concentration: 1 µM
For Tyrosine-protein kinase ABL1 (ABL1, Homo sapiens, UniProt P00519, Q252H): remaining signal read 66%.
Serine/threonine-protein kinase Nek5 (NEK5, Homo sapiens, UniProt Q6P3R8) — remaining signal: 70%.
The remaining signal was 100% (Tyrosine-protein kinase JAK1, JH1 (JAK1, Homo sapiens, UniProt P23458)).
For Dual specificity tyrosine-phosphorylation-regulated kinase 1B (DYRK1B, Homo sapiens, UniProt Q9Y463): remaining signal read 0.6%.
For Mast/stem cell growth factor receptor Kit (KIT, Homo sapiens, UniProt P10721, D816H): remaining signal read 25%.
The remaining signal was 83% (Mitogen-activated protein kinase kinase kinase 10 (MAP3K10, Homo sapiens, UniProt Q02779)).

Sample 2
SMILES: N#CC(c1ccnc(NCCc2cccnc2)n1)c1nc2ccccc2s1 (stereo not drawn)
Observed: enzyme activity
Action: inhibitor
Concentration: 0.5 µM
Relative to: control
Casein kinase I isoform gamma-3 (CSNK1G3, Homo sapiens, UniProt Q9Y6M4) — remaining activity: 87.1%.
It gave 76.2% for remaining activity (Dual specificity mitogen-activated protein kinase kinase 2 (MAP2K2, Homo sapiens, UniProt P36507)).
The remaining activity was 6.2% (Glycogen synthase kinase-3 beta (GSK3B, Homo sapiens, UniProt P49841)).
Ephrin type-A receptor 3 (EPHA3, Homo sapiens, UniProt P29320) — remaining activity: 75.1%.
The remaining activity was 99.1% (Serine/threonine-protein kinase ULK3 (ULK3, Homo sapiens, UniProt Q6PHR2)).
It gave 98.3% for remaining activity (Tyrosine-protein kinase Lck (LCK, Homo sapiens, UniProt P06239)).
It gave 106% for remaining activity (Tyrosine-protein kinase JAK3 (JAK3, Homo sapiens, UniProt P52333)).
It gave 113% for remaining activity (Rhodopsin kinase GRK7 (GRK7, Homo sapiens, UniProt Q8WTQ7)).
For Macrophage-stimulating protein receptor (MST1R, Homo sapiens, UniProt Q04912): remaining activity read 93.5%.
The remaining activity was 102% (Mitogen-activated protein kinase kinase kinase 5 (MAP3K5, Homo sapiens, UniProt Q99683)).
Mitogen-activated protein kinase kinase kinase 14 (MAP3K14, Homo sapiens, UniProt Q99558) — remaining activity: 109%.
Fibroblast growth factor receptor 3 (FGFR3, Homo sapiens, UniProt P22607) — remaining activity: 98.2%.
It gave 98.8% for remaining activity (Tyrosine-protein kinase ABL2 (ABL2, Homo sapiens, UniProt P42684)).
For Activin receptor type-1B (ACVR1B, Homo sapiens, UniProt P36896): remaining activity read 97.1%.

Sample 3
Cell line: HaCaT
Concentration: 100 µM
Time: 36 h
The viability of NNc1nnc(NN)c2ccccc12 is reported as 72.7%.
CCOC(CN1CCN(CC(C)C(=O)c2ccccc2)CC1)c1ccccc1 (stereo not drawn) has a viability of 85.7%.
For CCN[C@@H]1C[C@H](N)[C@@H](O[C@H]2OC(CN)=CC[C@H]2N)[C@H](O)[C@H]1O[C@H]1OC[C@](C)(O)[C@H](NC)[C@H]1O, the viability was 93.8%.
For CC[C@H]1OC(=O)[C@H](C)[C@@H](O[C@H]2C[C@@](C)(OC)[C@@H](O)[C@H](C)O2)[C@H](C)[C@@H](O[C@@H]2O[C@H](C)C[C@H](N(C)C)[C@H]2O)[C@](C)(O)C[C@@H](C)CN(C)[C@H](C)[C@@H](O)[C@]1(C)O, the viability was 75.7%.
The viability of CC(C)(C)c1cc(C(C)(C)C)c(NC(=O)c2c[nH]c3ccccc3c2=O)cc1O is reported as 5.66%.
For COc1ccc(C(=O)NCc2ccc(OCCN(C)C)cc2)cc1OC, the viability was 45.5%.

Sample 4
Compound: CS(=O)(=O)c1cc(C2(NC(=O)c3cncc4c3cnn4-c3ccc(F)cc3)CC2)ccn1
Observed: cell-free assay
Technique: competition with immobilised ligand
Concentration: 1 µM
It gave 90% for remaining binding (Ephrin type-A receptor 3 (EPHA3, Homo sapiens, UniProt P29320)).
The remaining binding was 100% (Serine/threonine-protein kinase WNK1 (WNK1, Homo sapiens, UniProt Q9H4A3)).
The remaining binding was 93% (Receptor-type tyrosine-protein kinase FLT3, autoinhibited (FLT3, Homo sapiens, UniProt P36888)).
Cyclin-dependent kinase 17 (CDK17, Homo sapiens, UniProt Q00537) — remaining binding: 79%.
